# Results gathered from unrelated publications.
# Each numbered part is a random draw from the data of one study; scales do not carry over between parts. Substitutions count along the parent as printed.
# UniProt Q96LR5, sequence (whole entry, looked up): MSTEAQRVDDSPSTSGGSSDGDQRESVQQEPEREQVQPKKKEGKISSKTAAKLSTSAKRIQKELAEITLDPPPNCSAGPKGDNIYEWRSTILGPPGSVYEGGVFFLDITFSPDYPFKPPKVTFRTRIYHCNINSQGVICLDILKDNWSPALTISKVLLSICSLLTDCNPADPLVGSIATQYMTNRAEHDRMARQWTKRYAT
# UniProt P51965, sequence (whole entry, looked up): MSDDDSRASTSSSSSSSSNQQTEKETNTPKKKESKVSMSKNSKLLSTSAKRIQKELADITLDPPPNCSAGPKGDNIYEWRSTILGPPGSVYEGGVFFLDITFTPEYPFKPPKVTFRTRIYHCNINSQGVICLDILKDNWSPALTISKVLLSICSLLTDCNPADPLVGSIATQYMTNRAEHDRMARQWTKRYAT
# UniProt Q13404, sequence (whole entry, looked up): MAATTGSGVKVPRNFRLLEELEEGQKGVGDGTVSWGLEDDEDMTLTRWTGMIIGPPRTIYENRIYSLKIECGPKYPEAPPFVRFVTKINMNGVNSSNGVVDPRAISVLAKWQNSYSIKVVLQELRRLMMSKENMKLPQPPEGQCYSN
# UniProt P61077, sequence (whole entry, looked up): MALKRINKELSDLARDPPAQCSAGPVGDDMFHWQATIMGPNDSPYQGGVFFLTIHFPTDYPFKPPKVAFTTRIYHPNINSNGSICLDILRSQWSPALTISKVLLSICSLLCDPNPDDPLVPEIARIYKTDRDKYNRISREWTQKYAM
# UniProt Q8WVN8, sequence (whole entry, looked up): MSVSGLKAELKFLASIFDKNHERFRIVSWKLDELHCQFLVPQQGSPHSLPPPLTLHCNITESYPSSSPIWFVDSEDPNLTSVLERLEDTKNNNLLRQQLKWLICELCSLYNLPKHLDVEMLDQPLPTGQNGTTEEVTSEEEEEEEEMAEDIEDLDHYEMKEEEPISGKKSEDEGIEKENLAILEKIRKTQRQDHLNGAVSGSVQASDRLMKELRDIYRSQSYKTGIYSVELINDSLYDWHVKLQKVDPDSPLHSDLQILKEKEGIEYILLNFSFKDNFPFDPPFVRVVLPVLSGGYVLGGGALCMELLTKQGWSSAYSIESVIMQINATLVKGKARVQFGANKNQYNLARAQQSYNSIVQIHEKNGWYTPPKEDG

# Set 1 — technique: universal PBM; form: double-stranded DNA, one strand shown; sample: in vitro; concentration: 600 nM; reading: higher = stronger binding
# Target: Sal-like protein 4, full length isoform A (SALL4, Homo sapiens, UniProt Q9UJQ4, residues 1-1053)
# UniProt Q9UJQ4, sequence (whole entry, looked up): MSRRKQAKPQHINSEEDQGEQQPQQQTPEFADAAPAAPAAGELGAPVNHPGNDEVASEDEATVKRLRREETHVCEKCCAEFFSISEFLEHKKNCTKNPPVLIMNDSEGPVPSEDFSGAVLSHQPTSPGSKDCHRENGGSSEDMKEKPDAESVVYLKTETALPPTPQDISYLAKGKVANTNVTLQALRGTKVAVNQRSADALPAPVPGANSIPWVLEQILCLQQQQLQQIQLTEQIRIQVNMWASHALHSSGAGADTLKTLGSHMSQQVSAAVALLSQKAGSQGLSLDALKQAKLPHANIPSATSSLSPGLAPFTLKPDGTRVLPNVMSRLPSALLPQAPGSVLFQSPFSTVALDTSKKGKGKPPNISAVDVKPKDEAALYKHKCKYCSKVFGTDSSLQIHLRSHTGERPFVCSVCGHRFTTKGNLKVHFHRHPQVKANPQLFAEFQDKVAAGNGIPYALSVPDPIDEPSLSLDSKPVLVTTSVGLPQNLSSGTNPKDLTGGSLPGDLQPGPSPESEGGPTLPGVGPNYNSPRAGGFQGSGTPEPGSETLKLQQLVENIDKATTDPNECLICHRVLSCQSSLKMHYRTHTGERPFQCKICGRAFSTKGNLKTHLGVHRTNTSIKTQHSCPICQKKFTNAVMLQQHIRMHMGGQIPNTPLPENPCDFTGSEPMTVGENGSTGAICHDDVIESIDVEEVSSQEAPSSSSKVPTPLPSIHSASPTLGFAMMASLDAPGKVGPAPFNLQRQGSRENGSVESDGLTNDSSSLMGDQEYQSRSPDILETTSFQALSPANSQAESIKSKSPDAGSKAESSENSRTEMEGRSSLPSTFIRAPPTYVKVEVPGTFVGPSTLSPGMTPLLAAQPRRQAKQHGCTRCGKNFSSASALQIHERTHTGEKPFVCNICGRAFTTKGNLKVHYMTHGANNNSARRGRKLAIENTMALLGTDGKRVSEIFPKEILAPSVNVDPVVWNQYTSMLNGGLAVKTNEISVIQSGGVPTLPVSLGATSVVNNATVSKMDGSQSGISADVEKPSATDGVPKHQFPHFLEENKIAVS
# Notes: 8-mer, flanks averaged, mean of replicates
Strand,E-score
GCGCTAGC,-0.29
GAGAGGCA,-0.314
TACCAGTA,0.0982
AGAAAACG,-0.0444
AGGCCGAA,-0.172
ATTTCGTG,0.0978
AGGGCAGA,-0.18
AATAGGAC,0.147
CACGCACG,-0.224
CCGAACGC,-0.156
ATACAAGG,0.168
AATTGGCA,0.108
ATGGTCTA,0.0295
CTTCTTTA,0.171
ACCAACGG,-0.285
AGATTTAG,0.0715

# Set 2 — Sequence: B1 (RNF2 RING domain); technique: yeast two-hybrid; sample: yeast; notes: mostly zero background; relative to: not given; reading: higher = stronger interaction
# B1: RNF2 RING domain (UniProt Q99496); chain SPRSLHSELMCPICLDMLKNTMTTKECLHRFCADCIITALRSGNKECPTCRKKLVSKRSLR
target,lacZ reporter activity
UBE2V1 UBC core domain (UniProt Q13404),0
UBE2D3 UBC core domain (UniProt P61077),0
UBE2Q2 UBC core domain (UniProt Q8WVN8),0
UBE2E2 UBC core domain (UniProt Q96LR5),0
UBE2E1 UBC core domain (UniProt P51965),0

# Set 3 — target: CCND1, cyclin fold, Cln2 fusion (human); technique: yeast growth competition, sequencing; sample: yeast; notes: weak parent motif; relative to: not given; reading: higher = stronger binding
# Parent: SLBP docking peptide (human); ARYKRKLLINDFG
Variant,normalised enrichment score
K4T,-0.597
N10H,-0.101
I9C,0.228
R5M,0.332
K6S,-0.618
R5W,-0.488
D11T,0.482
R2L,-0.0789
R2C,-0.0294
A1F,-0.809
R2Y,0.405
L8M,0.426
A1T,0.415
K6I,0.0919
N10D,0.152
N10E,0.504
Y3M,0.21
R2F,-0.0904
K4P,-0.707
G13L,-0.503
D11G,0.44
Y3F,0.132
N10G,0.916
R2A,0.155
L8R,-0.535

# Set 4 — technique: DHFR PCA, deep sequencing; sample: yeast; added: (+)-ABA 0.39 µM; relative to: wild-type fitted maximum; reading: higher = stronger binding
# Target: ABI1, truncated, D143A, DHFR fusion (Arabidopsis thaliana)
# Notes: methotrexate growth selection, single substitutions
# Parent: PYL1, truncated, DHFR fusion (Arabidopsis thaliana); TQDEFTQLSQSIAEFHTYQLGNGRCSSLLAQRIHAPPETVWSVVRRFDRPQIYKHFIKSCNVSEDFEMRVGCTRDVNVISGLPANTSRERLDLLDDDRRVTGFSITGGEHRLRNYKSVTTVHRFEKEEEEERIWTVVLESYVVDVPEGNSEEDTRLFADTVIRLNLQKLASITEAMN
Variant,relative binding score
Q2K,39.1%
V62G,-11.7%
A170D,9.45%
V44M,4.67%
R88Q,46.6%
G21D,46.8%
V145D,1.65%
D48P,-5.56%
N177M,47.7%
N85E,65.6%
R74K,-20.9%
S27F,-4.05%
Q19R,41.5%
I52L,48.6%

# Set 5 — technique: RNA Bind-n-Seq; form: RNA; sample: in vitro; concentration: 200 nM; notes: whole 134-nt RNA, ends assumed; added: 150 mM KCl; relative to: input library; reading: higher = stronger binding
# Target: Fragile X messenger ribonucleoprotein 1, C-terminal low-complexity region (Fmr1, Mus musculus, UniProt P35922)
# Constant ends, left off below: GGGAGUUCUACAGUCCGACGAUC … UGGAAUUCUCGGGUGUCAAGG
Strand,log2 enrichment
GUCCUGUGCUACACAUCGUAUGUACCGAAUCAAAUUUUUUUAAACCCAAAUUUUUAAAAAAGUAUUAUGUUACGCCGUUCGGAUCUGCAC,-0.458
CCUGUGCUACACAUCGUAUGUACCGAAUCGGGUUUUUUGGGUUUUUUGGGUUUUUUGGGGAAAGUAUUAUGUUACGCCGUUCGGAUCUGC,-0.43
UGUGCUACACAUCGUAUGUACCGAAUCGGGGUUUUUUUGGGGAAAAAAAGGGGAAAAAGGGGAAAGUAUUAUGUUACGCCGUUCGGAUCU,-0.0869
CAAGUCCUGUGCUACACAUCGUAUGUACCGAAUCGGGGCCCGGCCCGGGCCCGGGGAAAGUAUUAUGUUACGCCGUUCGGAUCUGCACUU,-1.19
GCAGGAAGUAAAAACAAAUGGAAAUGCUUCGGAUAGUGGCAGGGGUGGGGGUUGCUAAGGAAAGGGUGGGAUGUGAGUGGGUAAAGAGUU,0.333
AAGUCCUGUGCUACACAUCGUAUGUACCGAAUCGGAAAAAGGGAAAAAGGAAAAAGGAAAGUAUUAUGUUACGCCGUUCGGAUCUGCACU,-0.791
UAACUUUAAAGGAGGAUCUGAUGGAUAUGGCAGUGGACGUGGAUUUGGGGAUGGCUAUAAUGGGUAUGGAGGAGGACCUGGAGGUGGCAA,0.28
CAGAGACAACACGCACCCACACAGACACAGAGGGAAGGGGUUGGGAUGGGGACAGGGUGCACAGCAGGGCGGGGUAGGACCCCAGCCCCU,1.22
GCAGGAAGUAAAAACAAAUGGAAAUGCUUCGGAUAGUGGCAGGGGUGGGGGUAAAUAAGGAAAGGGUGGGAUGGGAGUGGGUAAAGAGUU,0.0269
GUCCUGUGCUACACAUCGUAUGUACCGAAUCGGGAAAAAGGGUUUUUUUGGGAAAGGGAAAGUAUUAUGUUACGCCGUUCGGAUCUGCAC,-0.421
UGGCCCUGGUGGCAUGCGGGGAGGAAGAGGUGGCCUCAUGGAUCGUGGUGGUCCCGGUGGAAUGUCCAGAGGUGGCCGUGGUGGAGACAG,-0.179
ACCAUGCAGGUGGGCAUCUUUGGGAAGUGGGGCAAGGGGGGGAUAGGGAGGGGGGUAACACUUUGGUAACAGGUGGUCCCAGGUCGUUUC,0.349
GCAGGAAGUAAAAACAAAUGGAAAUGCUUCGGAUAGUGGCAAAGGUGGGGGUUGCUAAGGAAAGGGUGGGAUGGGAGUGGGUAAAGAGUU,0.654
AAGUCCUGUGCUACACAUCGUAUGUACCGAAUCGGUUUUUUUGGUGGUUUUUUUGGAAAGUAUUAUGUUACGCCGUUCGGAUCUGCACUU,-0.94

# Set 6 — technique: EMSA with sequencing; form: double-stranded DNA, one strand shown; sample: in vitro; concentration: 10 and 20 nM; relative to: negative control set to 0; reading: higher = stronger binding
# Target: Hepatocyte nuclear factor 3-alpha (Foxa1, Mus musculus, UniProt P35582, residues 1-468, full length assumed)
# UniProt P35582, sequence (whole entry, looked up): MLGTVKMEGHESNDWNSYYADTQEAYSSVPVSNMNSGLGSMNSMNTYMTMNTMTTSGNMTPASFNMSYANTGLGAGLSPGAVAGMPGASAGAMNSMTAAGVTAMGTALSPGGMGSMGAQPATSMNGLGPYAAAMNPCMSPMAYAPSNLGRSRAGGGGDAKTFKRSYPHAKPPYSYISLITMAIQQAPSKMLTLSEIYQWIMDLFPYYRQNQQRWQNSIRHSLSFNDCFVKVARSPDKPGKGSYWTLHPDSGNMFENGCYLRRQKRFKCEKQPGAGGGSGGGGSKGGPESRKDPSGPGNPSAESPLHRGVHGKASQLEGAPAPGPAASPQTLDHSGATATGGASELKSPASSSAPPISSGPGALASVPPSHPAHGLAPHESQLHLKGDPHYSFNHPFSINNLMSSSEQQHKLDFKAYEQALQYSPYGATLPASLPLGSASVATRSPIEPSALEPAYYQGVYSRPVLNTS
# Notes: whole designed probe, mean of two concentrations, ends assumed
# Constant ends, left off below: GTGAGCGGTGCCCATTGATGGGGAAC … TTTCACTGGGATCGTGGGGAC
Strand,normalised bound fraction [ratio]
GGCTCCAAACGGCTGAATCAGCATTTTCAGAAACAAAGTGTTCTAGGCCTGGCCTTTTAAACAGCAGCAACGAGCGTTGTGCAATAAAACGCATATTTACTCACGAGCTCTCCTTGTTTTGGTCTTTCCCCCCTCCCCCCCATCTCTTGAATGAAACTGGGCACCAAGTTTGCAAGAAAATATTCTTTCAAAC,0.11
GCGGCGCCTGGCTCTGCGAGTCGGAGCTGCCACAGCCCAGCTGCATCTGTGCACTCAGGCAGAGGCTGTCAAGGTCTGGGAGGCCTTAGTTCCCTGTTTACTCTTATTATCTCTGAGGAAATGTCTCCATGCTTGGAAGGCCCTTGAAAGAGGATACGTCGATGGGAAACTTCTCAGAGGAAGCCTGCTGATG,0.108
ATCTTCCCCCTCTTCCTTGCCCCACCAGCTCACCTTCCCGGGTTATTTGCACAAAGGAAAATAAATAAAGCCGGCATTCGTTAACCCTCTTCACGCGCATACTGCTGTTTGCTCTGCATCTAACATGGTCCTTACGCGACGCCAGGCTCCGGGAGAGCAAAGCACCGTGTCAGGCGCATGATCCGGGGTGGCC,0.38
TCCACTGGGATAAATTTATTTCATAAATGTCATTTTCTAAAGATAACTTCTTGGTCTCATACTTGGTCTCCAAATCTAAAATAAAACAAGAAAGCAATCTCATGCTGTTTTCTTTTACTAAAAGAAGCAACATTTCTAATGTAGAAATAAAAGACAACAAAAGTAATCCTTAACCAAAACTCTAAAATATTGT,0.0302
ATCTTCCCCCTCTTCCTTGCCCCACCAGCTCACCTTCCCGGGTTATTTGCAGATAGGAAAATAAATAAAGCCGGCATTCGTTAACCCTCTTCTGGCGCAAACTGCACATTGGTCTGGATGAATCATGGTCCTTTGGCGACGCCAGGCTCCGGGAGAGCAAAGCACCGTGTCAGGGCCATGATCCGGGGTGGCC,0.326
GGCTCCAAACGGCTGAATCAGCATTTTCAGAAACAAAGTGTTCTAGGCCTGGCCTTTTAGTTGTGCAATAACAGCAGCAACGAGCAAAACGCATATTTACTCACGAGCTCTCCTTGTTTTGGTCTTTCCCCCCTCCCCCCCATCTCTTGAATGAAACTGGGCACCAAGTTTGCAAGAAAATATTCTTTCAAAC,0.117
ATTAGGCAGATATAGGGACCTGAGACTTAGGTGGTTATTTTCTTCATCTCATCGGTGGGGACCTGGCTTCTTTGACTGCACCTTGATGTGCTTGTTTACACTGTTAGTATTTCCCCTTGTGGATACTGTAGGCTTATTTTACAGCCAGAGTGAGTAGGGGCAGGCTATCTGGCCAGTCGCCACCTCAGATTAT,0.33
TGCAACATGCACCAGTTTCCTGGAGGTTAGTTGCTAATTCTAAAAGGCTTCAGATAATTCACTGTGTATTGAGTCATGGCTTGATGACGACCTTGTTTACAAAGCTCATTCAAACAGCCCAGTTCCTGCCCGTTTGCTCTTTGACCCTGACCGAAATCCACCAGAAGGCGAGTGACTTACAATGGGATTATTC,0.236

# Repeated from above (set 4):
Variant,relative binding score
G21D,46.8%
V145D,1.65%
D48P,-5.56%
N177M,47.7%
N85E,65.6%
R74K,-20.9%
